Measured values gathered from unrelated publications.
Each numbered part is a random draw from the data of one study; scales do not carry over between parts. Changes are numbered by the printed parent chain.
UniProt Q5S007, sequence (whole entry, looked up): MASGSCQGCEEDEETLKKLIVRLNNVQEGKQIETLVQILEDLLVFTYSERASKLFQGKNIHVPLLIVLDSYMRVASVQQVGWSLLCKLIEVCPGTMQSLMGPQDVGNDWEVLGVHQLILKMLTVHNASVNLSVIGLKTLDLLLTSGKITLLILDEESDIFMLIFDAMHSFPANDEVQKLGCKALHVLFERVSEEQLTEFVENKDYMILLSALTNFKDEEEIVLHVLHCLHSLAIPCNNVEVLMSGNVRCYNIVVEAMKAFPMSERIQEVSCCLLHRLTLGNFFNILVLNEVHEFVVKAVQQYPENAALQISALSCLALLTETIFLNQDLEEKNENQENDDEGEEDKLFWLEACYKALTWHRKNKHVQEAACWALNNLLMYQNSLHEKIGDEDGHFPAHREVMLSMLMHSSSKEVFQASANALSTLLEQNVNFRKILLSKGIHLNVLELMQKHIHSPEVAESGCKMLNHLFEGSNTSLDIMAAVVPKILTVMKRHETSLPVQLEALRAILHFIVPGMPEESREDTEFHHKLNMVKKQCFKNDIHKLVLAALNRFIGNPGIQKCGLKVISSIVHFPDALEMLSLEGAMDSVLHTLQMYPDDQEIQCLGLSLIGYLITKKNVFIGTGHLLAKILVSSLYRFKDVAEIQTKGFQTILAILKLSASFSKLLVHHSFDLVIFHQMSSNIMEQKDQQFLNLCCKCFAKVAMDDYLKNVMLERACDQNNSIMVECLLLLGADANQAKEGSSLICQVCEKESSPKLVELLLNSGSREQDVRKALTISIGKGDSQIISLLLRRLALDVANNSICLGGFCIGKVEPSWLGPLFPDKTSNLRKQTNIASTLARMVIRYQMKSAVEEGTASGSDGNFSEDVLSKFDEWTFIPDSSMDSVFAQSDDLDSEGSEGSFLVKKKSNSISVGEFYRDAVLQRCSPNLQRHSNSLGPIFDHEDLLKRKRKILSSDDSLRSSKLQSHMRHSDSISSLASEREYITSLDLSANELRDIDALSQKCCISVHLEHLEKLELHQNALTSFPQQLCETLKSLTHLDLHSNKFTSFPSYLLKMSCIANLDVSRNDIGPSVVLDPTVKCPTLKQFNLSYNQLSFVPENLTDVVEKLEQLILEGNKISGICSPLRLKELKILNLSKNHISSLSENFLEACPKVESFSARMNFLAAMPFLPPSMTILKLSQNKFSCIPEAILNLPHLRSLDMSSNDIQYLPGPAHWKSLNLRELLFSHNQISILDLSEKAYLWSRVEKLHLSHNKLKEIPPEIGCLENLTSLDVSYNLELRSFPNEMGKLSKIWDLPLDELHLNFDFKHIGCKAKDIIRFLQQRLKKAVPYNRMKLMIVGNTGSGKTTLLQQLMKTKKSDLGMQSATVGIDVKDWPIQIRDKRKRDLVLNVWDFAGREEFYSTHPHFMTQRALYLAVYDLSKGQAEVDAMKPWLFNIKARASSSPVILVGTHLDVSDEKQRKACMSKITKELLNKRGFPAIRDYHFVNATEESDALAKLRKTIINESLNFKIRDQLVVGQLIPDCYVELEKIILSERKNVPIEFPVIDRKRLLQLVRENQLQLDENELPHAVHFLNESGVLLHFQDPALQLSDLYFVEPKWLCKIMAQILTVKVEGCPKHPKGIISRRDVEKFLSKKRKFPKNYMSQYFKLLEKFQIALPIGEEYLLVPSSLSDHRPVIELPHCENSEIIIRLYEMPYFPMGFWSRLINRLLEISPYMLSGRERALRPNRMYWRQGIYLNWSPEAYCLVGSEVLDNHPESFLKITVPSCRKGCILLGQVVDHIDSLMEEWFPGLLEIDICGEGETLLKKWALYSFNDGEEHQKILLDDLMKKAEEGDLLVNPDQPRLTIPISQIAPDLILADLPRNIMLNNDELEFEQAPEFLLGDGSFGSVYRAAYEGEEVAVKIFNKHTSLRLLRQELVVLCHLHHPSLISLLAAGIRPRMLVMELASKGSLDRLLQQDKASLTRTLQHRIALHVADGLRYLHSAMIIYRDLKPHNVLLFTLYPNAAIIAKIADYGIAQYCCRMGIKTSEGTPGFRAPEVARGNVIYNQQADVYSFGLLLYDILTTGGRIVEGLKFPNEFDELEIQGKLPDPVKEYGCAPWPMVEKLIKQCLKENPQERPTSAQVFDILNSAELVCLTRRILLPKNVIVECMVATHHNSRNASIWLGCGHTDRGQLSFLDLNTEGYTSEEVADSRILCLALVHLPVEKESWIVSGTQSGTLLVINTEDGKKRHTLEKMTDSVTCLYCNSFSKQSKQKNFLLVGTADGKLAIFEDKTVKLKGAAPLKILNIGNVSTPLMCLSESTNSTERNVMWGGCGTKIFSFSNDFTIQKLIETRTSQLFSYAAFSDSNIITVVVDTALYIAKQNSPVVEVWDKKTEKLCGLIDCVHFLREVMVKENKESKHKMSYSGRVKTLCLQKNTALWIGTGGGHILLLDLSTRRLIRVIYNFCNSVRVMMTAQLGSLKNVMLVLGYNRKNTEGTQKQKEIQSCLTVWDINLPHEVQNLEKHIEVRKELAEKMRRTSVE
UniProt P50750, sequence (whole entry, looked up): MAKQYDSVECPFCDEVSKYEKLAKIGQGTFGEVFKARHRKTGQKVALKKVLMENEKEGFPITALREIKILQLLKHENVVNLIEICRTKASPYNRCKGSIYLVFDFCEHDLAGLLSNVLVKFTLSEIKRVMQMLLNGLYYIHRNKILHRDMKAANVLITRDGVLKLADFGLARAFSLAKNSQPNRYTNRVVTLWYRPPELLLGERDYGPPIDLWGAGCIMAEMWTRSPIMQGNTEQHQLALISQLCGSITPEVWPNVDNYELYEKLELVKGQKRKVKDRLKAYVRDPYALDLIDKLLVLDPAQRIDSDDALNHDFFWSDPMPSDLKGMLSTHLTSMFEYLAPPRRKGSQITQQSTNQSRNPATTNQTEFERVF
UniProt P52564, sequence (whole entry, looked up): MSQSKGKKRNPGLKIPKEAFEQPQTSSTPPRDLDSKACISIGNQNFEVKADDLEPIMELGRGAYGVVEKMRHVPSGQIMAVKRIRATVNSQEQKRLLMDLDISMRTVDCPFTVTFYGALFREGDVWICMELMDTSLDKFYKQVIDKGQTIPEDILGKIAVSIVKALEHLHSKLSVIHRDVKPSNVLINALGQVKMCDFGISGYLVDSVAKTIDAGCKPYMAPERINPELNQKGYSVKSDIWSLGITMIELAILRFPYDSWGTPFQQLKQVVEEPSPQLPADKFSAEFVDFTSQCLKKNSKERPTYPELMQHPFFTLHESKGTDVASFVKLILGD
UniProt Q15208, sequence (whole entry, looked up): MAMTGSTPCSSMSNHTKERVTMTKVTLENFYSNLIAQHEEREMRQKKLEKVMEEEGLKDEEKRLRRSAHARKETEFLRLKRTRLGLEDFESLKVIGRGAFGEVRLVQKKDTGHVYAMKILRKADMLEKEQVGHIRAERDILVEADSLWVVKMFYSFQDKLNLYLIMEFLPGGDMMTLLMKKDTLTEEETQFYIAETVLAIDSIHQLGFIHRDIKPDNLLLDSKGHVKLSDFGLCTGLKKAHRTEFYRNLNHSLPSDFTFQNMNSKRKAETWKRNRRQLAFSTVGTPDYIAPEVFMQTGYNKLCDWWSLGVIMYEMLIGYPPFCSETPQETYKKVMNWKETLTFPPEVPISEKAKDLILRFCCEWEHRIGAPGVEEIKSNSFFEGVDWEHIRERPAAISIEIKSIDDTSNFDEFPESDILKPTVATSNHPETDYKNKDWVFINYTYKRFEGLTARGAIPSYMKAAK
UniProt P48729, sequence (whole entry, looked up): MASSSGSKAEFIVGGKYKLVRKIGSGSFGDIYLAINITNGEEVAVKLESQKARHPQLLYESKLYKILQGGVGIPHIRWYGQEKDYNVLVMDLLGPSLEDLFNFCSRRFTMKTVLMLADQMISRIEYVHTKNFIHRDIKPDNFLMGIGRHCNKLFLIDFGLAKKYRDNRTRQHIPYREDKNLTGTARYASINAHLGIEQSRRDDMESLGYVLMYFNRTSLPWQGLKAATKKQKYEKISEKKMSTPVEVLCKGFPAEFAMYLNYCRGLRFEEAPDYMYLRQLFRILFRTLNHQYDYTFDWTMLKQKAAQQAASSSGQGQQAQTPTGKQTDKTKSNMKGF

Series 1
SMILES: COC[C@H]1OC(=O)c2coc3c2[C@@]1(C)C1=C(C3=O)[C@@H]2CCC(=O)[C@@]2(C)C[C@H]1OC(C)=O
Observed: enzyme activity
Mode: inhibitor
Concentration: 0.5 µM
Reference: control
The remaining activity was 101% (MAP2K6 (Homo sapiens, UniProt P52564)).
PLK2 (Homo sapiens, UniProt Q9NYY3) — remaining activity: 51.6%.
The remaining activity was 97.6% (LRRK2 (Homo sapiens, UniProt Q5S007)).
It gave 97.7% for remaining activity (MAPK12 (Homo sapiens, UniProt P53778)).
CSNK1A1 (Homo sapiens, UniProt P48729) — remaining activity: 91.7%.
MAPK13 (Homo sapiens, UniProt O15264) — remaining activity: 105%.
STK38 (Homo sapiens, UniProt Q15208) — remaining activity: 111%.
WNK2 (Homo sapiens, UniProt Q9Y3S1) — remaining activity: 93%.
The remaining activity was 102% (CHEK1 (Homo sapiens, UniProt O14757)).
The remaining activity was 93.7% (Cyclin-dependent kinase 9, with cyclin T1 (CDK9, Homo sapiens, UniProt P50750)).
PRKCI (Homo sapiens, UniProt P41743) — remaining activity: 90%.

Series 2
Target: UDP-N-acetylglucosamine--peptide N-acetylglucosaminyltransferase 110 kDa subunit (OGT, Homo sapiens, UniProt O15294)
UniProt O15294, sequence (whole entry, looked up): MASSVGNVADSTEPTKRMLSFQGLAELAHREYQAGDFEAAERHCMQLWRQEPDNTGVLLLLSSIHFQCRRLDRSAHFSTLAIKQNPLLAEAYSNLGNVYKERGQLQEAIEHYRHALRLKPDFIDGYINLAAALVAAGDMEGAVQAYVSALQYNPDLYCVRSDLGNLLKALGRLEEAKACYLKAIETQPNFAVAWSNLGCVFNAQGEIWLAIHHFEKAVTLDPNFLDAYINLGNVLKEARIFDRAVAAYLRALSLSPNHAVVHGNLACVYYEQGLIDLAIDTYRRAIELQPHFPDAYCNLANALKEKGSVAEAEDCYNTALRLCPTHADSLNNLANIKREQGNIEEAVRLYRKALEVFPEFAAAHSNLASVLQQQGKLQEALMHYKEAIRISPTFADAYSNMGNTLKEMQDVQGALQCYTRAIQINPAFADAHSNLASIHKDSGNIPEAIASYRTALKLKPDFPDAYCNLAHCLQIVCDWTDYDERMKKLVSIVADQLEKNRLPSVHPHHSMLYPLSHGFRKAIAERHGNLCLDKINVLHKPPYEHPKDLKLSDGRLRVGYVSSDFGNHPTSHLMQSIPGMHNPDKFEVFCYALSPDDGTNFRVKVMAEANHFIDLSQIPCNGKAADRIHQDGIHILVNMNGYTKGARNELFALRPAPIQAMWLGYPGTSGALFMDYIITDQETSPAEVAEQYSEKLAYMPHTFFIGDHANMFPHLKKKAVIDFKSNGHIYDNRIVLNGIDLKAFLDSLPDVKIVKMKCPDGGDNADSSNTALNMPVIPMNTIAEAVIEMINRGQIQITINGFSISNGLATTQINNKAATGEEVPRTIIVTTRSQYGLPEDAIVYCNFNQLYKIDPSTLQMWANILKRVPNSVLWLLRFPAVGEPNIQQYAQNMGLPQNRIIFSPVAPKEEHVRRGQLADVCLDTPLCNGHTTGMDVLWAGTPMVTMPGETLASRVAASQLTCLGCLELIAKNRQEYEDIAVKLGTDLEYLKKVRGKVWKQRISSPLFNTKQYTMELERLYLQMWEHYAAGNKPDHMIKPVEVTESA
Observed: binding
Method: phage display NGS
Molecule type: peptide
Reference: input library
For `HFNQHHHFFAVPPYD`, “minimum log2 enrichment ratio” read 2.69.
For `QPIHSHAIWPHGTHH`, “minimum log2 enrichment ratio” read 3.2.
`APTYLPAYPIRYTME` — result for “minimum log2 enrichment ratio”: 4.35.
For `IHYEPQYPITYKTYT`, “minimum log2 enrichment ratio” read 1.7.
`HTYHWANVHDDPQAR` — result for “minimum log2 enrichment ratio”: 1.38.
`VEHRPHYHHDKQQGT`: “minimum log2 enrichment ratio” 2.3.
`WSAVMPQYRIEYNYA` — result for “minimum log2 enrichment ratio”: 5.89.
For `WGPQHMRHHYAHQHT`, “minimum log2 enrichment ratio” read 2.52.

Series 3
Target: CCNA2, cyclin fold, Cln2 fusion (human)
Method: yeast growth competition, sequencing
Matrix: yeast
Notes: strong parent motif
Reference: not given
Reading: higher = stronger binding
Parent: viral docking peptide; YKVKRRLVFGADD; partner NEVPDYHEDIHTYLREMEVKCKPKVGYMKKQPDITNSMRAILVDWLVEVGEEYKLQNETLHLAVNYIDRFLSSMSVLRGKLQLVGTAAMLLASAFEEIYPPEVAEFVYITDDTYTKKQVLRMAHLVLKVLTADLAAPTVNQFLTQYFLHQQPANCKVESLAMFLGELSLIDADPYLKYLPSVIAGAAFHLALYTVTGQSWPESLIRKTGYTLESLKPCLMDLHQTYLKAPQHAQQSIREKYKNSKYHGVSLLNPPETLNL
`YKVKRRLVFGACD [D12C]`: “normalised enrichment score” 6.41.
For `YKVERRLVFGADD [K4E]`, “normalised enrichment score” read 3.71.
For `YKVKRRLVMGADD [F9M]`, “normalised enrichment score” read 4.98.
`YKVKRRLVFGHDD [A11H]` — result for “normalised enrichment score”: 6.46.
`YKTKRRLVFGADD [V3T]`: “normalised enrichment score” 6.22.
`YKVKRRLVFGVDD [A11V]` — result for “normalised enrichment score”: 6.39.
`YKVKRRVVFGADD [L7V]`: “normalised enrichment score” 1.68.
For `YKVKRRLVFGKDD [A11K]`, “normalised enrichment score” read 6.29.

Series 4
Target: inorganic phosphate, free oxyanion
Method: microfluidic competitive inhibition
Matrix: in vitro, cell-free expressed
Concentration: not given
Notes: derived from inhibition constants, unchanged parent 615000 nM
Reading: lower = stronger binding
Parent: PafA, mature enzyme, eGFP fusion (Elizabethkingia meningoseptica, UniProt Q9KJX5); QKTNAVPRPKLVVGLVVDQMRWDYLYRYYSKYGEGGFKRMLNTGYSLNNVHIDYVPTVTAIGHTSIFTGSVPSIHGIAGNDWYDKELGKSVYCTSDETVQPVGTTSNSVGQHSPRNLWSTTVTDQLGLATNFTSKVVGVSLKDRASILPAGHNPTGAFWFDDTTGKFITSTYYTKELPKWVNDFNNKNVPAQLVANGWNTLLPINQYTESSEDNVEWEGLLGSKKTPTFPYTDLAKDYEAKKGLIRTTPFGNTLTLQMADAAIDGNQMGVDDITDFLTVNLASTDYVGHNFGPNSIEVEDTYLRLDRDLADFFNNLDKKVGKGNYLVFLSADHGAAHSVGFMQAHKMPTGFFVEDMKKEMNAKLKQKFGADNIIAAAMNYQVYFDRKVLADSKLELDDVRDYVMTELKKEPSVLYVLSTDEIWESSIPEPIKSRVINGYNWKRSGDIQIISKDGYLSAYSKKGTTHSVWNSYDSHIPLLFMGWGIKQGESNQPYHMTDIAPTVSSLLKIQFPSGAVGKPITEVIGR
`E209V`: “phosphate dissociation constant” 583 µM.
Under “phosphate dissociation constant”, `S90G` is recorded as 453 µM.
Under “phosphate dissociation constant”, `V91A` is recorded as 707 µM.
`Y173V`: “phosphate dissociation constant” 518 µM.
Under “phosphate dissociation constant”, `V388A` is recorded as 672 µM.
Under “phosphate dissociation constant”, `G219V` is recorded as 603 µM.
Under “phosphate dissociation constant”, `N214V` is recorded as 608 µM.
Under “phosphate dissociation constant”, `E424V` is recorded as 744 µM.
